Measured values pooled from the literature.
Lines come from different studies, so protocols differ. Numbers after ± are the reported error.
PPO3: PPO3 (Agaricus bisporus, UniProt C7FF04)
Chain of UniProt C7FF04 (whole entry, looked up): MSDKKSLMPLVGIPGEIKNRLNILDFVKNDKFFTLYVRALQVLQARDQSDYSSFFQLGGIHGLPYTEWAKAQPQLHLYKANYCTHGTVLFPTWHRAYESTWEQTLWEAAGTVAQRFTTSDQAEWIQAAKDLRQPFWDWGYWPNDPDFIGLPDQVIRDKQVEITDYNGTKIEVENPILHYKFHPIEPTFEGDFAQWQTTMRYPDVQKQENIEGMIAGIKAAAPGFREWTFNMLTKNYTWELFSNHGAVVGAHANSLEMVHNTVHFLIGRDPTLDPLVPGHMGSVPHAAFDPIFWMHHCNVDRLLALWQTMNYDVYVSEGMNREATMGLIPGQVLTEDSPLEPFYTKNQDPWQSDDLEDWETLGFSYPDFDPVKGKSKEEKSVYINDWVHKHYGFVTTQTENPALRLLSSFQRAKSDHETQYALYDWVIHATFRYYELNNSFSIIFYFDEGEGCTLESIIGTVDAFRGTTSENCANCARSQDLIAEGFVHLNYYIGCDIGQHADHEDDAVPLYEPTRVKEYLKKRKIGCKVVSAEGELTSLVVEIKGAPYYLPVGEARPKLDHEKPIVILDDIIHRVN
Faah: Fatty-acid amide hydrolase 1 (Faah, Rattus norvegicus, UniProt P97612)
Chain of UniProt P97612 (whole entry, looked up): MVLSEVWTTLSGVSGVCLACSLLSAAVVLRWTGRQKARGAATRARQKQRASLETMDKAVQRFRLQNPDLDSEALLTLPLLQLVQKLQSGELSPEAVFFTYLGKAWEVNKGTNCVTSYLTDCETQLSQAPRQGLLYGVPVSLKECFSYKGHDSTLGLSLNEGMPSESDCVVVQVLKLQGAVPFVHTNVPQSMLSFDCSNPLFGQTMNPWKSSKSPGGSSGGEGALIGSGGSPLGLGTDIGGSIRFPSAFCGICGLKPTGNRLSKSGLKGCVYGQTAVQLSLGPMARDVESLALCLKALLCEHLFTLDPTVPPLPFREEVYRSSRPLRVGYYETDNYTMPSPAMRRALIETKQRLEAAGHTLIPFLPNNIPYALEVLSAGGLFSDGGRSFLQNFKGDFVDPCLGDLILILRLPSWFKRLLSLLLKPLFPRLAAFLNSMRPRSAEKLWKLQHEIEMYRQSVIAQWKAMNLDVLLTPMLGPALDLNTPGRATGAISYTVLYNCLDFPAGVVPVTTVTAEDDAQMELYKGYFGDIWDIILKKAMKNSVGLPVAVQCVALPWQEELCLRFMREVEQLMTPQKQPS
CACNA1C: Voltage-dependent L-type calcium channel subunit alpha-1C (CACNA1C, Homo sapiens, UniProt Q13936)
Chain of UniProt Q13936 (whole entry, looked up): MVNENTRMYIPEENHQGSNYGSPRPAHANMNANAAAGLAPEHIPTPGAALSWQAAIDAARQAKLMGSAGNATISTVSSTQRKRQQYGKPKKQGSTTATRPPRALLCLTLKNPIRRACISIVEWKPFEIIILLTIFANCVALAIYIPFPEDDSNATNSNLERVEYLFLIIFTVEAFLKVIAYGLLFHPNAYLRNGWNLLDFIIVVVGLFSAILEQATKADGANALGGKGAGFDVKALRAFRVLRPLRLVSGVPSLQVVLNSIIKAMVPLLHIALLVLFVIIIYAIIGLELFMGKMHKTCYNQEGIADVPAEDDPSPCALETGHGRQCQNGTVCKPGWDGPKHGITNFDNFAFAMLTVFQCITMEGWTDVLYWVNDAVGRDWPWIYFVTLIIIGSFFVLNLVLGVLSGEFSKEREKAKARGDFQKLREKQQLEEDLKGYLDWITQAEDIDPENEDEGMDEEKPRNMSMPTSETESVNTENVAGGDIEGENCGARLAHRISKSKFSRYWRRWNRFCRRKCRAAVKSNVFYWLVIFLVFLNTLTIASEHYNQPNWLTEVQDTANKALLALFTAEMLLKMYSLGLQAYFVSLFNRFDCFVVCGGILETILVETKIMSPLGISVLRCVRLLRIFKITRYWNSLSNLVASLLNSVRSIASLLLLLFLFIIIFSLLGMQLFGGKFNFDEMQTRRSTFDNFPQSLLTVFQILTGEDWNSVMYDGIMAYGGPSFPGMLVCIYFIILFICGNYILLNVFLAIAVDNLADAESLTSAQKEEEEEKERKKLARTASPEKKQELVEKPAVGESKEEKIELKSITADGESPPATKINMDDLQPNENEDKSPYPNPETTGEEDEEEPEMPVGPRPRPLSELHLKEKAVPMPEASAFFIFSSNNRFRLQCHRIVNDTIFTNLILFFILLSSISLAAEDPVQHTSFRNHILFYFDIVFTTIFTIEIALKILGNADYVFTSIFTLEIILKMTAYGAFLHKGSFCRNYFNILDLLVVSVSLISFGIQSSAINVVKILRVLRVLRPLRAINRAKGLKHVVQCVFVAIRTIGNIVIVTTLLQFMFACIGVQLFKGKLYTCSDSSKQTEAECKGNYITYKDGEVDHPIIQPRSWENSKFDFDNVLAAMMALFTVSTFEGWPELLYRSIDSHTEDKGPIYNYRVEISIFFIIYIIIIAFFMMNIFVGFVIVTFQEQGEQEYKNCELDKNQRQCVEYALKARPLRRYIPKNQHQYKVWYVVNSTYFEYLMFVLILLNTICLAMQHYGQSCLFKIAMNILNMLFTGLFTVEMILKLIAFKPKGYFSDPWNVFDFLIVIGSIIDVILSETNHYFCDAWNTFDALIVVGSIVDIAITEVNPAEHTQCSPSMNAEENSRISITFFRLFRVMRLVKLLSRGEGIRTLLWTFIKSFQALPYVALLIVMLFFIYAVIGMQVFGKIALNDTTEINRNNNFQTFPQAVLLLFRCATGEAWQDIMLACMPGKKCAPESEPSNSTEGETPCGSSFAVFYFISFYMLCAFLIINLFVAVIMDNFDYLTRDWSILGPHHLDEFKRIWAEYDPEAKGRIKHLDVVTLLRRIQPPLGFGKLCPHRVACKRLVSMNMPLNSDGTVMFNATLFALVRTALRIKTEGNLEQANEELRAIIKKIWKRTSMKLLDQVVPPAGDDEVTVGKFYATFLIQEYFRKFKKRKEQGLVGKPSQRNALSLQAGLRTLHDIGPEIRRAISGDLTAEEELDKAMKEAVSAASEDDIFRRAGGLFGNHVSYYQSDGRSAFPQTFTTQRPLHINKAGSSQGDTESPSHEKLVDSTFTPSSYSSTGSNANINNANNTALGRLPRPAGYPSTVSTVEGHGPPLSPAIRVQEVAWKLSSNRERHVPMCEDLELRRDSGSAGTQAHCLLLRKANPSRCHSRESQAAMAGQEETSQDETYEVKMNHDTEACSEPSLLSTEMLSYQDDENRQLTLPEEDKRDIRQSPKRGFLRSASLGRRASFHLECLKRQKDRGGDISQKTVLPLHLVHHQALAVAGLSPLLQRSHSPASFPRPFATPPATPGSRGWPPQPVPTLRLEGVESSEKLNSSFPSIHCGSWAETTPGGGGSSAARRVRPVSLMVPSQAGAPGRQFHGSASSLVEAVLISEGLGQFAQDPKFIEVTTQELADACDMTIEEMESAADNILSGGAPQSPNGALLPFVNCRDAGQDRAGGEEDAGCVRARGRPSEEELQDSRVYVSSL
GRPR: Gastrin-releasing peptide receptor (GRPR, Homo sapiens, UniProt P30550)
Chain of UniProt P30550 (whole entry, looked up): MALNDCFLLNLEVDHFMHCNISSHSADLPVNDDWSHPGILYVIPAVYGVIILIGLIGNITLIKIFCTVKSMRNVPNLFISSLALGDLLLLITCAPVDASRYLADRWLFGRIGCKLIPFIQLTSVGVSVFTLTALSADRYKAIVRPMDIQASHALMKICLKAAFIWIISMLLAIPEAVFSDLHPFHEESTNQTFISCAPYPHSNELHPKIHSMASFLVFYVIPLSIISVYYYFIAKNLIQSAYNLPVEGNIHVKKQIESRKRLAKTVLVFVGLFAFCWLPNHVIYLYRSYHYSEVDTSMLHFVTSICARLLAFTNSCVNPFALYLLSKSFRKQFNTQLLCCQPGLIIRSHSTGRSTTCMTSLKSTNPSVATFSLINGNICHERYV
Chain of UniProt Q96EB6 (whole entry, looked up): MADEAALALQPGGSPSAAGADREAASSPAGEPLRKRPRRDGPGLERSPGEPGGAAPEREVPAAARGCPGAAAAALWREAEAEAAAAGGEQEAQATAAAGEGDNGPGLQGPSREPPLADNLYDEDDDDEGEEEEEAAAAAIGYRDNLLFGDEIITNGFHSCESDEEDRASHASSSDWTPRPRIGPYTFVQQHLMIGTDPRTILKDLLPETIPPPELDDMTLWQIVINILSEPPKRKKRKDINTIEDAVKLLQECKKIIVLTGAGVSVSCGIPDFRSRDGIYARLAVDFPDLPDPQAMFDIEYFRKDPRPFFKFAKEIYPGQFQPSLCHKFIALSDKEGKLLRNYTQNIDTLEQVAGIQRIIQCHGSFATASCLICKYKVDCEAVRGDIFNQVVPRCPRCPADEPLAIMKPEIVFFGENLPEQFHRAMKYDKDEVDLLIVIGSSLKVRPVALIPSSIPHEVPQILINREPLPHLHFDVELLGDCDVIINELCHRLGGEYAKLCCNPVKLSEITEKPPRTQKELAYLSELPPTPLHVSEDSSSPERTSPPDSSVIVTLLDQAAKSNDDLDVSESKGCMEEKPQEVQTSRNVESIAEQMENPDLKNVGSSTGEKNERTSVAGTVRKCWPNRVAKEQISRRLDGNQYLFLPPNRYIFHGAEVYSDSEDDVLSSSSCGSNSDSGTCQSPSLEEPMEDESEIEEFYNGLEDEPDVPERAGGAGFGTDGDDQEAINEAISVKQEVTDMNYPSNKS
Chain of UniProt Q96RJ0 (whole entry, looked up): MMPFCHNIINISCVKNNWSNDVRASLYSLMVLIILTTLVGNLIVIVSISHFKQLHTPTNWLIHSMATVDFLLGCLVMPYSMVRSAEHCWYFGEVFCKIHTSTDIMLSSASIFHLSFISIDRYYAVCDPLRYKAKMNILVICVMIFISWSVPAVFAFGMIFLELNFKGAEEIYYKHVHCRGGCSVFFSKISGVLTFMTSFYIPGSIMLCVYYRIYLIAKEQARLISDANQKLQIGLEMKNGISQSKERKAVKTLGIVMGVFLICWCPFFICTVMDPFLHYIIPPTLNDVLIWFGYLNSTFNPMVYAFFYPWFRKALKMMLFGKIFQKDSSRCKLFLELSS
Chain of UniProt P00383 (whole entry, looked up): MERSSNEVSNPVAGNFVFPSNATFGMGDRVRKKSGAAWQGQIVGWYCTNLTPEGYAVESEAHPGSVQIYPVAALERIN
Chain of UniProt Q9HT15 (whole entry, looked up): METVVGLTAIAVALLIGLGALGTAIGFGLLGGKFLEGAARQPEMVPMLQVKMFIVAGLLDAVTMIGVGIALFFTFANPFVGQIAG

Compound	target	assay	test system	conditions	IC50
C=C(F)C(=O)Nc1cnn2ccc(-c3ccc(C4CCCCC4)cc3)nc12	TEAD4 (Homo sapiens, UniProt Q15561)	TEAD palmitoylation, inhibitor	HEK293T expressing FLAG-tagged target	24 h, with: alkyne palmitate	190 nM
COC(=O)[C@@H](CCSC)NCc1cc2ccccc2nc1SC	ATP synthase subunit c, whole ATP synthase complex (atpE, Pseudomonas aeruginosa, UniProt Q9HT15)	ATP synthesis, inhibitor	Pseudomonas aeruginosa, inverted membrane vesicles	10 min, with: NADH	14300 nM
NC(=O)[C@@H]1CSc2ccc(cc2)C[C@H](NC(=O)CCc2cccc([N+](=O)[O-])c2)C(=O)N[C@@H](C2CCCCC2)C(=O)NCC2(CCCCC2)CC(=O)N1	EP300 (Homo sapiens, UniProt Q09472)	enzyme activity, inhibitor, radiometric	–	–	3000 nM
O=C(O)c1ccccc1-c1c2ccc(=O)cc-2oc2cc(O)ccc12	UBA1 (Homo sapiens, UniProt P22314)	enzyme activity, inhibitor	–	–	> 100000 nM
O=C(O)c1ccc2nc(-c3ccc(OCCCCCCCCOc4ccc(-c5nc6ccc(C(=O)O)cc6[nH]5)cc4)cc3)[nH]c2c1	Dihydrofolate reductase type 2 (Escherichia coli, UniProt P00383)	enzyme activity, inhibitor	–	pH 7	70000 ± 30000 nM
C[C@H](CC(=O)C[C@@H](C)[C@H]1C[C@H](O)[C@@]2(C)C3=C(C(=O)C[C@]12C)[C@@]1(C)CCC(=O)C(C)(C)[C@@H]1C[C@@H]3O)C(=O)O	alpha-amylase	inhibitor	–	–	56.2 ± 2.38 µg/mL
CN1CCc2cc(Nc3ncc(C(F)(F)F)c(NCc4cc[nH]n4)n3)ccc2C1	MARK3 (Homo sapiens, UniProt P27448)	enzyme activity, inhibitor, FRET	–	–	1.8 nM
Cn1cnnc1Sc1c2c(c(C#N)c3nc4ccccc4n13)CCCC2	ERO1-like protein alpha (Homo sapiens, UniProt Q96HE7)	enzyme activity, inhibitor, fluorescence	–	–	1400 nM
COc1ccc2cc(C(=O)NCCCN3CCC(Cc4ccccc4)CC3)ccc2c1	SLC6A3 (Homo sapiens, UniProt Q01959)	transporter uptake, inhibitor, radiometric	–	–	> 10000 nM
Cc1cc(C)nc(SCC(=O)Nc2ncc(Cc3cccc(OCc4cn(-c5ccc(Cl)cc5)nn4)c3)s2)n1	SIRT1 (Homo sapiens, UniProt Q96EB6)	enzyme activity, inhibitor, fluorescence	–	–	> 100000 nM
CN(C)CCN(Cc1ccncc1)Cc1c(Cl)cccc1Cl	SLC6A2 (Homo sapiens, UniProt P23975)	transporter uptake, inhibitor, radiometric	–	–	635 nM
Oc1cc(O)c2c(c1)O[C@H](c1ccc(O)c(O)c1)[C@@H](O)[C@@H]2c1c(O)cc(O)c2c1O[C@H](c1ccc(O)c(O)c1)[C@H](O)C2	PPO3	enzyme activity, inhibitor	–	–	104000 nM
CC1OC(Oc2c(-c3ccc(O)cc3)oc3cc(O)cc(O)c3c2=O)C(OC(=O)C=Cc2ccc(O)cc2)C(O)C1OC(=O)C=Cc1ccc(O)cc1 (centres unmarked)	Ccr2 (Mus musculus, UniProt P51683)	ligand displacement in cells, radioligand	–	–	414 nM
CN(C)c1ccc2c(c1)C(=O)N([C@H](CS)C(=O)O)C2=O	VIM-2 (Escherichia coli, UniProt Q5U7L7)	enzyme activity, inhibitor	–	pH 7	1260 nM
CNC(=O)C1CCN(c2ccccc2NC(=O)c2ccc(-c3cccc(O)c3)c(C)c2)CC1	EPHA5 (Homo sapiens, UniProt P54756)	target engagement in cells, BRET	–	–	15600 nM
O=C(Nc1ccc(OC(F)(F)F)cc1)N1CCC(Cc2cccc(Oc3ccc(C(F)(F)F)cn3)c2)CC1	Faah	enzyme activity, inhibitor, fluorescence	rat brain microsomes	5 min preincubation	> 10000 nM

Compound	target	assay	test system	conditions	IC50
COc1cc(O)cc(-c2cc3cc(O)c(OC)cc3o2)c1	PPO3	enzyme activity, inhibitor, absorbance	–	pH 6.8	45800 nM
CN(CCOc1ccc(F)cc1)C(=O)c1cccc(S(=O)(=O)N2CCc3ccccc3C2)c1	CACNA1C	calcium signal, fluorescence	–	–	1550 nM
Cc1nc(Nc2ncc(C(=O)Nc3c(C)cccc3Cl)s2)cc(N2CCN(CCOC(=O)[C@@H](N)CS)CC2)n1	CSK (Homo sapiens, UniProt P41240)	enzyme activity, inhibitor	–	–	500 nM
Cc1cc2c(NC(=O)N[C@@H]3CC(C)(C)Oc4cc(C(F)(F)F)ccc43)cccc2cn1	TRPV1 (Homo sapiens, UniProt Q8NER1)	acid-evoked calcium influx, antagonist	HEK293, human	pH 5	20.1 ± 7.3 nM
O=C(NCCc1ccccn1)[C@@H]1Cc2ccccc2CN1S(=O)(=O)c1ccc2ccccc2c1	CACNA1C	calcium signal, fluorescence	–	–	11400 nM
COCc1cc2c(cn1)CN(C(=O)Nc1nc(-c3ccc(F)cc3)ccc1N)C2	HDAC11 (Homo sapiens, UniProt Q96DB2)	deacetylase activity, inhibitor, recombinant enzyme	–	–	11800 nM
N#Cc1c(C(F)(F)F)cc(-c2ccc(Cl)cc2)nc1SCC(=O)Nc1ccccc1	TAAR1 (Homo sapiens, UniProt Q96RJ0)	–	–	–	> 10000 nM
O=C(N[C@@H](Cc1coc2ccccc12)B(O)O)[C@@H]1C[C@H]2CC[C@@H]1O2	Proteasome component C5/PSMB5 (Homo sapiens, UniProt P20618+P28074)	enzyme activity, inhibitor, fluorescence	–	with preincubation	2520 nM
N=C(N)NCCCC(N)C(=O)NCC(=O)NC(CCCNC(=N)NCCSCC1OC(n2cnc3c(N)ncnc32)C(O)C1O)C(N)=O (centres unmarked)	SETD7 (Homo sapiens, UniProt Q8WTS6)	enzyme activity, inhibitor, fluorescence	–	–	> 100000 nM
O=C(OC[C@@]1(O)C(=O)C=C[C@@H](OC(=O)c2ccccc2)[C@@H]1O)c1ccccc1	MGLL (Homo sapiens, UniProt Q99685)	enzyme activity, inhibitor	–	–	27900 nM
O=C[C@H](C[C@H]1CCNC1=O)NC(=O)[C@H](CC1CCCCC1)NC(=O)OCc1cccc(Cl)c1	Genome polyprotein, 3C protease (rhinovirus B14, UniProt P03303)	3C protease activity, inhibitor, FRET	–	–	50 ± 20 nM
CCCC(=O)Oc1c(S(=O)(=O)c2ccc(C)cc2)c(C)nn1C(C)(C)C	Polycystin-2 (Homo sapiens, UniProt Q13563, F604P)	ion current, inhibitor, two-electrode voltage clamp	Xenopus oocytes	–	6000 nM
CCNC(=O)[C@H](CC(C)C)NC(=O)[C@H](Cc1c[nH]cn1)NC(=O)CNC(=O)[C@@H](NC(=O)[C@H](C)NC(=O)[C@H](Cc1c[nH]c2ccccc12)NC(=O)[C@H](CCC(N)=O)NC(=O)[C@@H](Cc1ccccc1)NC(=O)[C@H](CC(N)=O)NC(=O)[C@H](CC(=O)O)NC(=O)[C@H](CCCNC(=N)N)NC(=O)CNC(=O)CNC(=O)CN)C(C)C	GRPR	ligand displacement, radioligand	–	–	65.3 nM
CC[C@H](C)[C@H](NC(=O)CNC(=O)[C@H](CC(=O)O)NC(=O)[C@H](CO)NC(=O)C=Cc1c[nH]cn1)C(=O)N[C@@H](Cc1ccccc1)C(=O)N[C@H](C(=O)N[C@@H](CC(=O)O)C(=O)N[C@@H](CO)C(=O)N[C@@H](Cc1ccc(O)cc1)C(=O)N[C@@H](CO)C(=O)N[C@@H](CCCNC(=N)N)C(=O)N[C@@H](Cc1ccc(O)cc1)C(=O)N[C@@H](CCCNC(=N)N)C(=O)N[C@@H](CCCCN)C(=O)N[C@@H](CCC(N)=O)C(=O)N[C@@H](CCSC)C(=O)N[C@@H](C)C(=O)N[C@H](C(=O)N[C@@H](CCCCN)C(=O)N[C@@H](CCCCN)C(=O)N[C@@H](C)C(=O)N[C@@H](CC(C)C)C(=O)N[C@@H](C)C(=O)N[C@@H](C)C(=O)N[C@H](C(=O)N[C@@H](CC(C)C)C(=O)NCC(=O)N[C@@H](CCCCN)C(=O)N[C@@H](CCCNC(=N)N)C(=O)N[C@@H](Cc1ccc(O)cc1)C(=O)N[C@@H](CCCCN)C(=O)N[C@@H](CCC(N)=O)C(=O)N[C@@H](CCCNC(=N)N)C(=O)N[C@H](C(=O)N[C@@H](CCCCN)C(=O)N[C@@H](CC(N)=O)C(=O)N[C@@H](CCCCN)C(N)=O)C(C)C)C(C)C)C(C)C)[C@@H](C)O	VIPR1 (Homo sapiens, UniProt P32241)	ligand displacement, radioligand	–	–	37.2 nM
O=C(OC(C(F)(F)F)C(F)(F)F)N1CCC(CCn2ccc3ncccc32)CC1	Faah	enzyme activity, inhibitor	–	–	6100 nM
CC(C)[C@H](NC(=O)[C@H](C)NC(=O)[C@H](Cc1c[nH]c2ccccc12)NC(=O)[C@H](Cc1c[nH]cn1)NC(=O)[C@H](N)Cc1ccccc1)C(=O)N[C@H](C)C(=O)N[C@@H](Cc1c[nH]cn1)C(=O)N1CCC[C@@H]1CN[C@@H](Cc1ccccc1)C(N)=O	GRPR	inositol phosphate generation, antagonist	HuTu80	with: GRP	25 ± 1 nM

Some of these lines once more:
Compound	target	assay	test system	conditions	IC50
Cc1nc(Nc2ncc(C(=O)Nc3c(C)cccc3Cl)s2)cc(N2CCN(CCOC(=O)[C@@H](N)CS)CC2)n1	CSK (Homo sapiens, UniProt P41240)	enzyme activity, inhibitor	–	–	500 nM
CC(C)[C@H](NC(=O)[C@H](C)NC(=O)[C@H](Cc1c[nH]c2ccccc12)NC(=O)[C@H](Cc1c[nH]cn1)NC(=O)[C@H](N)Cc1ccccc1)C(=O)N[C@H](C)C(=O)N[C@@H](Cc1c[nH]cn1)C(=O)N1CCC[C@@H]1CN[C@@H](Cc1ccccc1)C(N)=O	GRPR	inositol phosphate generation, antagonist	HuTu80	with: GRP	25 ± 1 nM
CN(C)CCN(Cc1ccncc1)Cc1c(Cl)cccc1Cl	SLC6A2 (Homo sapiens, UniProt P23975)	transporter uptake, inhibitor, radiometric	–	–	635 nM
COC(=O)[C@@H](CCSC)NCc1cc2ccccc2nc1SC	ATP synthase subunit c, whole ATP synthase complex (atpE, Pseudomonas aeruginosa, UniProt Q9HT15)	ATP synthesis, inhibitor	Pseudomonas aeruginosa, inverted membrane vesicles	10 min, with: NADH	14300 nM
COCc1cc2c(cn1)CN(C(=O)Nc1nc(-c3ccc(F)cc3)ccc1N)C2	HDAC11 (Homo sapiens, UniProt Q96DB2)	deacetylase activity, inhibitor, recombinant enzyme	–	–	11800 nM
